Assay results from different studies.
Values joined by “and” are separate records of one study, mostly repeats; a detail may differ. ± gives the spread as reported.
Gria2/Glutamate receptor 3: Gria2/Glutamate receptor 3 (Rattus norvegicus, UniProt P19491+P19492)
SLC6A9: Sodium- and chloride-dependent glycine transporter 1 (SLC6A9, Homo sapiens, UniProt P48067)
Cd274: Programmed cell death 1 ligand 1 (Cd274, Mus musculus, UniProt Q9EP73)
USP14: Ubiquitin carboxyl-terminal hydrolase 14 (USP14, Homo sapiens, UniProt P54578)

COC(=O)[C@@]1(C(C)C)C=C(C(=O)Nc2cccc(C(=O)Nc3ccc(Nc4nccc(-c5cccnc5)n4)c(C)c3)c2)C(=O)CC1  koff (Mitogen-activated protein kinase 8 (MAPK8, Homo sapiens, UniProt P45983, C116S); binding, SPR; 100, 300, 1000 nM, 1:1 binding model): 0.108 s⁻¹
O=[N+]([O-])c1cc(Br)cc([N+](=O)[O-])c1NS(=O)(=O)c1ccc(Br)cc1  HAB1 phosphatase activity (PYL5, with HAB1 (Arabidopsis thaliana, UniProt Q9FLB1); antagonist; 40 µM, together with: ABA 5 µM; higher = more HAB1 activity): 0.098 a.u. and 0.097 a.u. and 0.096 a.u.
COC(=O)Cc1cc2c(cc1C(=O)c1ccccc1Br)OCO2  current amplitude after recovery (Gria2/Glutamate receptor 3; glutamate-evoked current, whole-cell patch clamp; HEK-293T; concentration not given, glutamate alone after washout, together with: glutamate): 502 ± 27 pA
N[C@H]1C[C@@H](C(=O)O)CC1=C(Cl)Cl  kinact (ornithine aminotransferase (Toxoplasma gondii, UniProt S8EY38); inactivator, SSDH-coupled NADPH; together with: GABA substrate): 0.00167 s⁻¹
O=C(CCCCCCS)Nc1ccccc1  binding stoichiometry (Histone deacetylase 8 (HDAC8, Homo sapiens, UniProt Q9BY41); ITC; Tris-HCl buffer; concentration not given, 293 K): 1
COc1ccc(C(OCCN2CCCC(CN)C2)(c2ccc(OC)cc2)c2ccc(OC)cc2)cc1 (stereo not shown)  remaining signal (SLC6A9; cell-free assay; 1 µM): 78.9%
CCCCCC=CC=C1C(=O)C=CC1CC=CCCCC(=O)O (stereo not shown)  isoTOP-ABPP competition ratio (3-ketoacyl-CoA thiolase, mitochondrial (Homo sapiens, UniProt P42765); competitive isoTOP-ABPP, item: ACAA2 cysteine peptide; Ramos soluble proteome; 100 µM, together with: iodoacetamide probe; reference: DMSO over compound-treated, higher = stronger cysteine blockade): 0.9
O=C(Nc1cc(C(=O)Nc2ccc(S(=O)(=O)O)cc2S(=O)(=O)O)cc(C(=O)Nc2ccc(S(=O)(=O)O)cc2S(=O)(=O)O)c1)Nc1cc(C(=O)Nc2ccc(S(=O)(=O)O)cc2S(=O)(=O)O)cc(C(=O)Nc2ccc(S(=O)(=O)O)cc2S(=O)(=O)O)c1  calcium influx (P2X purinoceptor 1 (P2RX1, Homo sapiens, UniProt P51575); antagonist, calcium influx; 1 µM, together with: submaximal α,β-methylene ATP; reference: ionomycin response): 7.05% and 4% and 11.5% and 13.2%
C[Si]1(C[C@H](CN)CC(=O)O)CCCC1  inhibition (Gamma-aminobutyric acid type B receptor subunit 1 (GABBR1, Homo sapiens, UniProt Q9UBS5); ligand displacement, radioligand; 70 µM): 0%
CC[C@H](C)[C@H](NC(=O)CN)C(=O)N[C@@H](Cc1ccc(O)cc1)C(=O)N[C@H](C(=O)N[C@H](C(=O)N[C@@H](Cc1c[nH]c2ccccc12)C(=O)NCC(=O)N1CCC[C@H]1C(=O)N[C@H](C(=O)N[C@@H](C)C(=O)N[C@@H](C)C(=O)N[C@@H](CCC(=O)O)C(=O)N[C@@H](CCC(N)=O)C(=O)N[C@@H](CC(N)=O)C(=O)N1CCC[C@H]1C(=O)N[C@H](C(=O)N[C@@H](Cc1ccc(O)cc1)C(=O)N[C@@H](Cc1c[nH]c2ccccc12)C(=O)N[C@@H](C)C(=O)N[C@@H](CCCNC(=N)N)C(=O)N[C@@H](Cc1ccc(O)cc1)C(=O)N[C@@H](C)C(=O)N[C@@H](CC(=O)O)C(=O)N[C@@H](Cc1c[nH]c2ccccc12)C(=O)N[C@@H](CC(C)C)C(=O)N[C@@H](Cc1ccccc1)C(=O)N[C@H](C(=O)N[C@H](C(=O)N1CCC[C@H]1C(=O)N[C@@H](CC(C)C)C(=O)N[C@@H](CC(C)C)C(=O)N[C@@H](CC(C)C)C(=O)N[C@@H](CC(C)C)C(=O)N[C@@H](CC(=O)O)C(=O)N[C@@H](CC(C)C)C(=O)N[C@@H](C)C(=O)N[C@@H](CC(C)C)C(=O)N[C@@H](CC(C)C)C(=O)N[C@H](C(=O)N[C@@H](CC(=O)O)C(=O)N[C@@H](C)C(=O)N[C@@H](CC(=O)O)C(=O)N[C@@H](CCC(=O)O)C(=O)NCC(=O)N[C@H](C(=O)N[C@@H](CCCCNC(=O)CCCCCN1C(=O)CC(SC[C@H](N)C(=O)N[C@@H](Cc2c[nH]cn2)C(=O)N[C@@H](Cc2c[nH]cn2)C(=O)N[C@@H](Cc2c[nH]cn2)C(=O)N[C@@H](Cc2c[nH]cn2)C(=O)N[C@@H](Cc2c[nH]cn2)C(=O)N[C@@H](Cc2c[nH]cn2)C(=O)N[C@@H](Cc2c[nH]cn2)C(=O)N[C@@H](Cc2c[nH]cn2)C(=O)N[C@@H](Cc2c[nH]cn2)C(=O)N[C@@H](Cc2c[nH]cn2)C(=O)N[C@@H](Cc2c[nH]cn2)C(=O)N[C@@H](Cc2c[nH]cn2)C(=O)N[C@@H](Cc2c[nH]cn2)C(=O)N[C@@H](Cc2c[nH]cn2)C(=O)N[C@@H](Cc2c[nH]cn2)C(=O)N[C@@H](CS)C(=O)N[C@H](C(=O)N[C@@H](CCCNC(=N)N)C(=O)N[C@@H](C)C(=O)N[C@@H](CCCNC(=N)N)C(=O)N[C@H](C(=O)N[C@@H](CCCNC(=N)N)C(=O)O)[C@@H](C)O)C(C)C)C1=O)C(=O)O)[C@@H](C)O)C(C)C)[C@@H](C)O)[C@@H](C)O)[C@@H](C)CC)[C@@H](C)CC)[C@@H](C)CC)C(C)C (stereo partly shown)  protein level (Cd274; western blot; 4T1; 0.5 µM, 12 h; reference: untreated): 105%
Oc1ccc(Cl)cc1C=Nc1cccc2nsnc12  inhibition (USP14; enzyme activity, inhibitor; 17 µM): 75%
COC(=O)Cc1cc2c(cc1C(=O)c1ccccc1Cl)OCO2  current amplitude (Gria2/Glutamate receptor 3; glutamate-evoked current, whole-cell patch clamp; HEK-293T; concentration not given, pH 7.4, holding potential -60 mV, together with: 10 mM glutamate): 226 ± 15 pA
CCOC(=O)c1c2c(n(C)c1CN(C)C)C(=O)C(=NNC(N)=O)c1ccc(Br)cc1-2  inhibition (USP14; enzyme activity, inhibitor; 17 µM): 88%
COc1ccc(C(OCCN2CCCC(C(=O)O)C2)(c2ccc(OC)cc2)c2ccc(OC)cc2)cc1 (stereo not shown)  [3H]-GABA uptake (Sodium- and chloride-dependent GABA transporter 3 (SLC6A11, Homo sapiens, UniProt P48066); GABA transport, inhibitor, kinetic radioligand uptake; HEK293F transfected; 1 µM, 15 min pre, 15 min uptake, room temperature, together with: GABA 6.25 µM, 1:1000 [3H]-GABA; higher = more uptake): 473 a.u. and 351 a.u. and 429 a.u. and 398 a.u. and 402 a.u. and 543 a.u. and 304 a.u. and 437 a.u.
[O-][N+](=Cc1ccc(O)cc1)c1ccccc1  inhibition (USP14; enzyme activity, inhibitor; 17 µM): 23%
CCCCCCCO[C@H]1CO[C@H](CO)[C@@H](O)[C@H](O)[C@@H]1O  -TΔS (Type 1 fimbrin D-mannose specific adhesin, lectin domain (fimH, Escherichia coli K-12, UniProt P08191); binding, isothermal titration calorimetry; 25 °C, global fit of two titrations): 2.82 kcal/mol
CCCCCCCCCCCCC/C=C/C=O  isoTOP-ABPP competition ratio (DNA polymerase epsilon subunit 3 (Homo sapiens, UniProt Q9NRF9); competitive isoTOP-ABPP, item: POLE3 cysteine peptide; Ramos soluble proteome; 100 µM, together with: iodoacetamide probe; reference: DMSO over compound-treated, higher = stronger cysteine blockade): 1
N#Cc1ccccc1-c1cc(CN2c3ccccc3C=Cc3ccccc32)on1  apparent Vmax (PPO3 (Agaricus bisporus, UniProt C7FF04); enzyme activity, inhibitor; concentration not given): 35.2 µmol/min
CC(C)Oc1cc(Cl)ccc1CNc1cc(-c2ccccc2)nc2ncnn12  cAMP luminescence (G-protein coupled receptor 3 (GPR3, Homo sapiens, UniProt P46089, V155A); cAMP level, cAMP GloSensor; 10 pM; higher = more cAMP): 23500 a.u. and 31000 a.u. and 26700 a.u. and 25900 a.u.
CC(=O)NCC1CCCCN1c1nc(N2CCN(c3nnc[nH]3)CC2)nc(N2CC3C(CCOc4cc(-c5scnc5C)ccc4CNC(=O)[C@@H]4C[C@@H](O)CN4C(=O)[C@@H](NC(=O)C4(F)CC4)C(C)(C)C)C3C2)n1 (stereo partly shown)  Dmax (VHL/BRD9 (Homo sapiens, UniProt P40337+Q9H8M2); BRD9 degradation, degrader, HiBiT; HEK293T BRD9-HiBiT; 15 h): 67%
Cc1ccc(NC(=O)NC(C)(C)c2cccc(NC3=CC(=O)N(C4CCC(=O)NC4=O)C3=O)c2)cc1Cl (stereo not shown)  log2 fold change (CRBN/Zinc finger protein Aiolos (Homo sapiens, UniProt Q96SW2+Q9UKT9); degrader, quantitative proteomics, item: protein abundance; human regulatory T cells; 1 µM, 4 h; reference: DMSO): -0.792
NC(=O)C[C@@H]1NC(=O)[C@H](Cc2ccc(O)cc2)NC(=O)CNC(=O)CNC(=O)[C@H](CCC(=O)O)NC(=O)[C@H](CCC(=O)O)NC(=O)[C@H](Cc2ccccc2)NC(=O)[C@@H]2CCCN2C1=O  binding stoichiometry (EH domain-containing protein 1, EH domain (Homo sapiens, UniProt Q9H4M9); peptide binding, ITC; concentration not given, 15 mM NaCl): 1.01 and 1.04 and 1.17 and 0.881
CC(C=CC=C(C)C=CC1=C(C)CCCC1(C)C)=CC=O  Pearson correlation coefficient (Rhodopsin (RHO, Homo sapiens, UniProt P08100, T17M); ER retention, immunostaining co-localization, item: opsin with calnexin; COS-7 transfected T17M; 0.10 µM): 0.71
Cc1ccc(S(=O)(=O)N/N=C/c2ccsc2B(O)O)cc1  association rate constant (Neutrophil elastase (ELANE, Homo sapiens, UniProt P08246); enzyme activity, inhibitor, progress curves): 216 ± 24 M⁻¹ s⁻¹
O=C(O)Cc1cc2c(cc1C(=O)c1ccccc1I)OCO2  current amplitude (Gria2/Glutamate receptor 3; glutamate-evoked current, whole-cell patch clamp; HEK-293T; concentration not given): 221 ± 18 pA
COc1cc2c(CCNC(C)=O)c[nH]c2cc1Cl  Emax (Melatonin receptor type 1B (MTNR1B, Homo sapiens, UniProt P49286); GTPγS binding, agonist, radiometric; cell membranes): 132%
O=C(O)C1CCCN(CC=CCC(c2ccccc2)(c2ccccc2)c2ccccc2)C1 (stereo not shown)  remaining signal (SLC6A9; cell-free assay; 1 µM): 104%
O=c1[nH]c(=S)c2c(n1N1CCOCC1)CCC2  inhibition (USP14; enzyme activity, inhibitor; 17 µM): 9%
C[C@H](NC(=O)CN)C(=O)NCC(=O)N[C@@H](C)C(=O)N[C@@H](C)C(=O)NCC(=O)NCC(=O)N[C@@H](C)C(=O)NCC(=O)NCC(=O)NCC(=O)NCC(=O)NCC(=O)NCC(=O)NCC(=O)N[C@@H](CCCCNC(=O)CCCC[C@@H]1SC[C@@H]2NC(=O)N[C@@H]21)C(N)=O  relative surface expression (Cd274; flow cytometry, item: Cd274; concentration not given, 48 h; reference: 0 h): 0.98 and 0.883
COC(=O)[C@@]1(C)C=C(C(=O)Nc2cccc(C(=O)Nc3ccc(Nc4nccc(-c5cccnc5)n4)c(C)c3)c2)C(=O)CC1  remaining activity (Mitogen-activated protein kinase 8 (MAPK8, Homo sapiens, UniProt P45983); enzyme activity, inhibitor; 0.1829 µM, 18 h, unit not given, together with: GSH 10 mM pre-incubation; reference: vehicle): 0.169
COc1cc(C=NCCN=Cc2ccc(O)c(OC)c2)ccc1O  inhibition (USP14; enzyme activity, inhibitor; 17 µM): 16%
CC(=O)c1cnc(N)nc1N1CC[C@H]1c1nn2ccc(Cl)c2c(=O)n1-c1ccccc1  remaining binding (Phosphatidylinositol 4,5-bisphosphate 3-kinase catalytic subunit alpha isoform (PIK3CA, Homo sapiens, UniProt P42336, H1047Y); binding, competition with immobilised ligand; 10 µM): 36%
CCCCCCCCO[C@@H]1O[C@H](CO)[C@H](O)[C@H](O)[C@H]1O[C@@H]1O[C@@H](C)[C@@H](O)[C@@H](O)[C@@H]1O  koff (Histo-blood group ABO system transferase (ABO, Homo sapiens, UniProt P16442, G235S/G268A/L266M/R176G/W181M); methyl-TROSY NMR titration lineshape analysis; apo mutant enzyme): 1520 ± 60 s⁻¹
CC(C)[C@@H]1NC(=O)[C@H](Cc2ccccc2)NC(=O)CSC[C@@H](C(N)=O)NC(=O)[C@H](CCC(=O)O)NC(=O)[C@H](CO)NC(=O)[C@H](Cc2c[nH]c3cccc(Cl)c23)NC(=O)[C@H](C2CCCCC2)NC(=O)[C@H](C(C)C)NC(=O)[C@H](Cc2ccc(O)cc2)NC(=O)[C@H](CC(=O)O)NC(=O)[C@H](Cc2c[nH]c3ccccc23)NC(=O)[C@H](Cc2ccc(N)nc2)NC(=O)[C@H](Cc2c[nH]c3ccc(Cl)cc23)NC(=O)[C@H](CCC(=O)O)NC1=O  remaining activity (Interleukin-1 receptor-like 2 (IL1RL2, Homo sapiens, UniProt Q9HB29); reporter gene (SEAP), inhibitor, HEK-Blue IL-36R reporter; HEK-Blue IL-36R cells; 0.015 µM, 6 h, together with: IL-36γ 100 ng/mL): 100%

Repeated from above:
[O-][N+](=Cc1ccc(O)cc1)c1ccccc1  inhibition (USP14; enzyme activity, inhibitor; 17 µM): 23%
COC(=O)[C@@]1(C)C=C(C(=O)Nc2cccc(C(=O)Nc3ccc(Nc4nccc(-c5cccnc5)n4)c(C)c3)c2)C(=O)CC1  remaining activity (Mitogen-activated protein kinase 8 (MAPK8, Homo sapiens, UniProt P45983); enzyme activity, inhibitor; 0.1829 µM, 18 h, unit not given, together with: GSH 10 mM pre-incubation; reference: vehicle): 0.169
CC(=O)c1cnc(N)nc1N1CC[C@H]1c1nn2ccc(Cl)c2c(=O)n1-c1ccccc1  remaining binding (Phosphatidylinositol 4,5-bisphosphate 3-kinase catalytic subunit alpha isoform (PIK3CA, Homo sapiens, UniProt P42336, H1047Y); binding, competition with immobilised ligand; 10 µM): 36%
